# Measured values gathered from unrelated publications.
# Protocols differ between the studies behind these lines. Values joined by “and” are separate records of one study, mostly repeats; a detail may differ. Numbers after ± are the reported error.
Molecule,tested on,test,test system,setting,how to read,endpoint,result
KTDGTLMIERFVSLA,human CD4 T cells,AIM,peptide,,,responding donors,7%
CCCN(CCC)CCNC(=O)c1cc(-c2ccc(Br)s2)nc2ccccc12,SARS-CoV-2,cytopathic effect,USA_WA1/2020,"round 2, 5-point",,efficacy,77.8%
CCC(C)N(Cc1cccnc1)Cc1c[nH]nc1-c1ccc(F)cc1 (centres unmarked),Lassa mammarenavirus,viral replication,Huh-7,"10 µM, 72 h",,remaining activity,40%
CCc1c(C(=O)C(N)=O)c2c(OCC(=O)O)cccc2n1Cc1ccccc1,,inhibitor,human platelet-poor plasma,"100 µM, with: snake venom",,activated partial thromboplastin time,no inhibition
Cc1cc(C)cc(-c2ccc(CN3CCCC3C(=O)NCc3cccc(F)c3)cc2)c1 (centres unmarked),SARS-CoV-2,cytopathic effect,USA_WA1/2020,"round 1, 5-point",,maximum response,78.3%
YLTFYLTNDVSFLAH,human CD4 T cells,AIM,peptide,,,responding donors,17%
COC(C)(C)C(=O)N1CC(=O)N[C@@H](CC(C)C)c2nc(cs2)C(=O)N[C@@H](Cc2ccccc2)c2nc(C)nn2CC(=O)N[C@@H](C(C)C)C1,Lassa mammarenavirus,viral replication,Huh-7,"10 µM, 72 h",,remaining activity,101%
NC(=O)C[C@H](NC(=O)Cc1ccc(O)cc1O)C(=O)NCCCCCNCCCNCCCNC(=O)[C@@H](N)CCCN=C(N)N,"rat GluN1/GluN2A, GluN1 M2-loop Ala mutants","steady-state current, channel blocker, two-electrode voltage clamp",Xenopus oocytes,"100 nM, holding potential -60 mV",,inhibition,< 20%
CCOP(=S)(OCC)Oc1nc(Cl)c(Cl)cc1Cl,rat CYP3A,midazolam 4-hydroxylation,liver microsomes,concentration not given,,Vmax,0.59 ± 0.11 nmol/min/mg protein
TDEMIAQYTSALLAG,human CD4 T cells,AIM,peptide,,,responding donors,9%
Cc1ccc(-c2cccc(CN3CCCC(NC(=O)c4c(C)noc4C)C3)c2)cc1Cl (centres unmarked),SARS-CoV-2,cytopathic effect,USA_WA1/2020,"round 1, 5-point",,maximum response,92.6%
Cn1c(Cn2ccc(C(F)(F)F)c(Oc3cc(Cl)cc(C#N)c3)c2=O)n[nH]c1=O,HIV-1,"viral replication, single-round infection",RT mutant V106A,,,EC50,15.6 ± 4 nM
Cc1oc(-c2cccc(Cl)c2)nc1CN1CCCC(C(=O)NCCc2ccc(Cl)cc2)C1 (centres unmarked),SARS-CoV-2,cytopathic effect,USA_WA1/2020,"retest, 8-point, duplicates",,maximum response,34%
Fc1ccc(C(OCCN2CCN(CCCc3ccccc3)CC2)c2ccc(F)cc2)cc1,HeLa,Ebola VLP entry,,,,IC50,7690 nM
FPQSAPHGV,,AIM,"peptide, CD8+ T cells from PBMC, human donors",,baseline: positive over tested donors,frequency of responding donors,100%
Cc1cc(/C=C/C#N)cc(C)c1-n1cnc2cnc(Nc3ccc4cc(C#N)ccc4c3)nc21,HIV-1,"viral replication, single-round infection",RT mutant V106A,,,EC50,15.1 ± 1 nM
NTVKSVGKFCLEASF,human CD4 T cells,AIM,peptide,,,responding donors,8%
Cc1cc(/C=C/C#N)cc(C)c1Nc1ccnc(Nc2ccc(C#N)cc2)n1,HIV-1,"viral replication, single-round infection",RT mutant M184V,,,EC50,0.1 nM
NC(=O)CCNC(=O)c1ccccc1S,HIV-1,viral replication,"human PBMC, subtype C 92BR025, CCR5-tropic clinical isolate",,,EC50,4760 ± 1150 nM
CCOCCC(=O)N1CC(=O)N[C@@H](CC(C)C)c2nc(cs2)C(=O)N[C@@H](Cc2ccccc2)c2nc(C)nn2CC(=O)N[C@@H](C(C)C)C1,Lassa mammarenavirus,viral replication,Huh-7,"10 µM, 72 h",,remaining activity,105%
COP(=O)(OC)OC=C(Cl)Cl,rat CYP2C,tolbutamide hydroxylation,liver microsomes,concentration not given,,Vmax,0.93 ± 0.3 nmol/min/mg protein
CNC(=O)[C@@H](NC(=O)[C@H](CC(C)C)[C@H](O)C(=O)NO)C(C)(C)C,human fibrinogen,SDS-PAGE,Daboia russelii,"concentration not given, unit not given, with: GA venom",baseline: untreated fibrinogen,remaining fibrinogen Aα chain,0.719
Nc1ncnc2c([C@@H]3N[C@H](CO)[C@@H](O)[C@H]3O)c[nH]c12,Zaire ebolavirus,"viral replication, inhibitor",human Macrophage,100 µM,,inhibition,95.3%
CCCC(=O)OCSc1ccccc1C(=O)NCCC(N)=O,HIV-1,viral replication,"human PBMC, subtype G G3, CCR5-tropic clinical isolate",,,EC50,5390 ± 4090 nM
Cc1cc(/C=C/C#N)cc(C)c1Nc1nc(Nc2ccc3cc(/C=C/C#N)ccc3c2)ncc1N,HIV-1,"viral replication, single-round infection",RT mutant V106A,,,EC50,295 ± 29 nM
CCCN(CCC)CCCNC(=O)C1CCCN(Cc2nc(-c3ccc(Cl)cc3)oc2C)C1 (centres unmarked),SARS-CoV-2,cytopathic effect,USA_WA1/2020,retest 8-point,,maximum response,78.7%
O=C1NCN(c2ccccc2)C12CCN(CCCOc1ccc(F)cc1)CC2,HeLa,Ebola VLP entry,,,,IC50,19300 nM
O=C1Nc2ccc(Cl)cc2[C@@](C#CC2CC2)(C(F)(F)F)O1,HIV-1,"viral replication, single-round infection",RT mutant V106A/F227L/L234I,,,EC50,3.4 ± 0.3 nM
YADSFVIRGDEVRQI,human CD4 T cells,AIM,peptide,,,responding donors,8%
Nc1ncccc1CN1CCCC(C(=O)c2cccc3ccccc23)C1 (centres unmarked),Lassa mammarenavirus,viral replication,Huh-7,"10 µM, 72 h",,remaining activity,55%
LPYAK,,DSC,"peptide, 6/4 SOPC/cholesterol bilayers","10 mol%, pH 7.40, SOPC chain melting transition",,transition enthalpy,0.3 kcal/mol
LPYGANKDGIIWVAT,human CD4 T cells,AIM,peptide,,,responding donors,14%
COc1cccc(-c2ccc(CN3CCCC(c4nc5ccc(C)cc5c(=O)[nH]4)C3)cc2)c1 (centres unmarked),SARS-CoV-2,cytopathic effect,USA_WA1/2020,"retest, 8-point, duplicates",,maximum response,40.3%
Cc1cn([C@H]2C[C@H](N=[N+]=[N-])[C@@H](CO)O2)c(=O)[nH]c1=O,HIV-1,viral replication,"human PBMC, subtype C 98IN017, CXCR4-tropic clinical isolate",,,EC50,6.29 ± 0.11 nM
COc1ccc2cc3[n+](cc2c1OC)CCc1cc2c(cc1-3)OCO2,SARS-CoV-2 envelope protein,,Vero C1008,10 µg/mL,,inhibition,50 ± 4.1%
CCOc1ccc(NC(=O)c2cnn(-c3ccc(C)c(Cl)c3)c2C2CCNCC2)cc1,SARS-CoV-2,cytopathic effect,USA_WA1/2020,"retest, 8-point, duplicates",,efficacy,30.1%
ω-agatoxin IVA,,"cAMP signalling, high-content microscopy","DRG neurons, rat, spinal cord injury","dose not given, normalised 0 to 1, unit not given, with: forskolin, DAMGO 0.1","baseline: DAMGO maximum, higher = stronger inhibition",PKA-RII phosphorylation inhibition,0.822 and 0.87 and 0.915
O=C1CC2(CCN(c3ccnc4ccccc34)CC2)CN1Cc1ccccc1,Lassa mammarenavirus,viral replication,Huh-7,"10 µM, 72 h",,remaining activity,50%
Cc1cc(/C=C/C#N)cc(C)c1Nc1nc(Nc2ccc(/C=C/C#N)cc2)ncc1N,HIV-1,"viral replication, single-round infection",RT mutant V106A/L234I,,,EC50,< 2 nM
CCn1c2ccccc2c2cc(CN3CCN(Cc4cccc(Cl)c4)CC3)ccc21,SARS-CoV-2,cytopathic effect,USA_WA1/2020,"retest, 8-point, duplicates",,efficacy,79.5%
FHQECSLQSCTQHQP,human CD4 T cells,AIM,peptide,,,responding donors,18%
